Measured values pooled from the literature.
Parts stem from different laboratories: compare values within a part only. Several values in a cell are separate wells, animals, samples, runs or records.
Chain of UniProt P21860 (whole entry, looked up): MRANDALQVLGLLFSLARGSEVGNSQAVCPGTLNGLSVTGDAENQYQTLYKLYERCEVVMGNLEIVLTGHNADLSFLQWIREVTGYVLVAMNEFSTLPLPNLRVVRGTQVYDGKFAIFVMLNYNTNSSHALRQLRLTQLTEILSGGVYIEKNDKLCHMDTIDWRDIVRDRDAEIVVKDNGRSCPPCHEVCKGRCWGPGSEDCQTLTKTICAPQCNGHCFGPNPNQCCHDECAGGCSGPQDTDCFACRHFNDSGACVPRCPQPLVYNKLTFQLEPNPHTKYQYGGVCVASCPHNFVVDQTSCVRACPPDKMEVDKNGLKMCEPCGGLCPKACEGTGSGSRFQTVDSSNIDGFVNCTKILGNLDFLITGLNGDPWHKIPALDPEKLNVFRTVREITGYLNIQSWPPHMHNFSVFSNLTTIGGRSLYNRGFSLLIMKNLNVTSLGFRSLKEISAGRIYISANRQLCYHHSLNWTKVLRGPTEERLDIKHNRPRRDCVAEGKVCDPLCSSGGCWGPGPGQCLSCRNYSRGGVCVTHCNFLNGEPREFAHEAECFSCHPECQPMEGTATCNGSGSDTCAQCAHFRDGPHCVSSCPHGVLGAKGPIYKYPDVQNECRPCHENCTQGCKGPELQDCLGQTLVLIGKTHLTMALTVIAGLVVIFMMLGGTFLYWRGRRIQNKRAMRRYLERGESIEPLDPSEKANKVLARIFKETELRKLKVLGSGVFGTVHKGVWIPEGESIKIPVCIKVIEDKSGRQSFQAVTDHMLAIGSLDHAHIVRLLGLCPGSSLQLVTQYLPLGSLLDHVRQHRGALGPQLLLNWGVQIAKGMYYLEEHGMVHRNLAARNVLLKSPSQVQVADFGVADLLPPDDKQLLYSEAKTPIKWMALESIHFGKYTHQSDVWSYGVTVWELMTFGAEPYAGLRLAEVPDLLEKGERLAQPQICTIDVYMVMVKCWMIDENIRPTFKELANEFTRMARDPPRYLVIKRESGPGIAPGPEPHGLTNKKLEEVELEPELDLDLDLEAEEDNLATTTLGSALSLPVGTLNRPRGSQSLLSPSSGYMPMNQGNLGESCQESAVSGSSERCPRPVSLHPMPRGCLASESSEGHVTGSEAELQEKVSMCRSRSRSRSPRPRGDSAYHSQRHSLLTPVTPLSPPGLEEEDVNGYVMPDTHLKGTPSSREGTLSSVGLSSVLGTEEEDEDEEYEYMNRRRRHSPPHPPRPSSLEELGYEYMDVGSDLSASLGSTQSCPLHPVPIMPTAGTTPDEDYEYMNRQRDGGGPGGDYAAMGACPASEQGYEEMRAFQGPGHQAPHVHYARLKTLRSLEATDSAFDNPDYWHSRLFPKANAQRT
Chain of UniProt Q9UKE5 (whole entry, looked up): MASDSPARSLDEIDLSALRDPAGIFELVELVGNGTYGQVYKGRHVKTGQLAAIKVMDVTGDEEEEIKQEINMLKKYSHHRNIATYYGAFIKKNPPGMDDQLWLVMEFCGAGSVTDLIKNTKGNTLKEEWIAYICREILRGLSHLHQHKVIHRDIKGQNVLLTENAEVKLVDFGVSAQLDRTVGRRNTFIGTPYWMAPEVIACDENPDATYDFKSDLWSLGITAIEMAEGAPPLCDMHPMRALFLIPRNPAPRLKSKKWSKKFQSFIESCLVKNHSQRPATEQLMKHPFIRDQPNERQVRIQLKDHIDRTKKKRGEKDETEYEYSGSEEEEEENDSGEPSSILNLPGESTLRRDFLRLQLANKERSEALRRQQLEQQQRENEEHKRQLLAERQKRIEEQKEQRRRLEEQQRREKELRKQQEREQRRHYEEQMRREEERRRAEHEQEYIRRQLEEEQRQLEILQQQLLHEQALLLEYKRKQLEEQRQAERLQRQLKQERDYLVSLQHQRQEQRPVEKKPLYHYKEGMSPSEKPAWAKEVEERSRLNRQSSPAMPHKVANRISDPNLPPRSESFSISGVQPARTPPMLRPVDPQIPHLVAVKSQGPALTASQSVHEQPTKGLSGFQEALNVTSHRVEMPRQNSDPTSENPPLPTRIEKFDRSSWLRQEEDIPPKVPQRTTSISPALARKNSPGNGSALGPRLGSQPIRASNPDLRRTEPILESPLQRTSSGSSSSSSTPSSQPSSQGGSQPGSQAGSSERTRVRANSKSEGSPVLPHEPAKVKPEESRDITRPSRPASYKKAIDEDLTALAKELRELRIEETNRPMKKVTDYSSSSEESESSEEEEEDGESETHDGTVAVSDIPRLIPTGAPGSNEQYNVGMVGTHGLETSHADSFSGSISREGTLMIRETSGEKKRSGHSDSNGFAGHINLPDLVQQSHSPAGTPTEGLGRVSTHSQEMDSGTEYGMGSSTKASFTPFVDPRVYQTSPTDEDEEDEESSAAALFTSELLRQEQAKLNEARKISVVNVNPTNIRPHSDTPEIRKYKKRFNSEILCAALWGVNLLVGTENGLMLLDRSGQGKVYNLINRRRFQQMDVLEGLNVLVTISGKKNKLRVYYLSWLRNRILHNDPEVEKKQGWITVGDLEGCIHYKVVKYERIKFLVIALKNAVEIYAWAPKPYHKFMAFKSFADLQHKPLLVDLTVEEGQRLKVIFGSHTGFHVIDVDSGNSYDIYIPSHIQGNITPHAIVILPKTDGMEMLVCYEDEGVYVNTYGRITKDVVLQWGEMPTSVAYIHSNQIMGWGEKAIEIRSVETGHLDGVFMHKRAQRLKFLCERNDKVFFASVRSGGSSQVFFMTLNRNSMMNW
Chain of UniProt Q13470 (whole entry, looked up): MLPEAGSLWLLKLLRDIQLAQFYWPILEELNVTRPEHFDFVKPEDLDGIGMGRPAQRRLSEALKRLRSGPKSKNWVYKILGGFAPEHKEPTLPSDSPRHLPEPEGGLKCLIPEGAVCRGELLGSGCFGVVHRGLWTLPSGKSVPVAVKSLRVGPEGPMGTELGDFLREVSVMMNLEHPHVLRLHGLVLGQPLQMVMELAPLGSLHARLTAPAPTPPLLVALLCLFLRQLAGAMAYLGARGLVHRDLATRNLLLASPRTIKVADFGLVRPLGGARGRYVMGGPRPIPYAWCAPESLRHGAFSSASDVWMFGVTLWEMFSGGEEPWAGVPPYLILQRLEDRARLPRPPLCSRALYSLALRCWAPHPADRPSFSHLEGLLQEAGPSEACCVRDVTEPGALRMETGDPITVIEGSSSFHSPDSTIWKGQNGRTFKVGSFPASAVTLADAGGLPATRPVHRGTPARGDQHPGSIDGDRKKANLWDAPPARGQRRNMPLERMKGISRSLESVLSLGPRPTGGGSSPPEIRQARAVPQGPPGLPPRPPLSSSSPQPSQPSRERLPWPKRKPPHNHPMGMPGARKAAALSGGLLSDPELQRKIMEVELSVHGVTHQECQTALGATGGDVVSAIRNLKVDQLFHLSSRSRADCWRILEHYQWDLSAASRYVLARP
Chain of UniProt P07947 (whole entry, looked up): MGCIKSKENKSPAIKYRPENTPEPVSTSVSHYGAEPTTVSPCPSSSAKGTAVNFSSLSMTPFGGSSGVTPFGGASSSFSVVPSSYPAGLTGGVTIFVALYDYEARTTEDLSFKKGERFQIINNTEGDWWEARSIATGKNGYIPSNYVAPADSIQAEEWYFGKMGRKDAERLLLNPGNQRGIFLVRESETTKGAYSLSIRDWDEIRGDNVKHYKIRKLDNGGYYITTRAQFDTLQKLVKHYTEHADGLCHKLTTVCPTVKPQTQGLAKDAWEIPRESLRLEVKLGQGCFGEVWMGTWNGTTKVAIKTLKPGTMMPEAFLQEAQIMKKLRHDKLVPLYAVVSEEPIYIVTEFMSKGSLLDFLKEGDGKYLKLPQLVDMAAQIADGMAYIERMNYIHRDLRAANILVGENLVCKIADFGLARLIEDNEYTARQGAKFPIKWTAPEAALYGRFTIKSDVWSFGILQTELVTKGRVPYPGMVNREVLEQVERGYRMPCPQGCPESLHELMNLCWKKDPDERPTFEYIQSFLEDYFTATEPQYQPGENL
Chain of UniProt Q9HAZ1 (whole entry, looked up): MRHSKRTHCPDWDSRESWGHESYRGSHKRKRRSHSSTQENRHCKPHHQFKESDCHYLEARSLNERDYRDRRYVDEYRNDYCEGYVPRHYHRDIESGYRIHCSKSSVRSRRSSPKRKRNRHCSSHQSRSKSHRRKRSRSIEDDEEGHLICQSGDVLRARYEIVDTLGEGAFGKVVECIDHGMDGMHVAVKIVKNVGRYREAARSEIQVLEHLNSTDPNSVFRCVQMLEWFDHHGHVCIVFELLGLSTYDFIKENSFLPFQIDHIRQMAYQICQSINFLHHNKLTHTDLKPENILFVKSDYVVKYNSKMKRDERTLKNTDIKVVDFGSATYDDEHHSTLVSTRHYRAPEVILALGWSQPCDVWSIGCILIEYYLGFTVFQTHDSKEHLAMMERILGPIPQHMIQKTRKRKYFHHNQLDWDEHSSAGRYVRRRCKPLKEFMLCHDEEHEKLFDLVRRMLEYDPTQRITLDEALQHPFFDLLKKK

Series 1
Cell line: mouse MPNST tumor cells
Technique: high-content nuclear imaging
Measured: cell number
Tested at: 10 µM
Time: 12 h
Setting: mean of 2 replicates
Relative to: plate mean
Reading: higher = more cells
Structure (SMILES) | nuclei count
CCCCCCN(CCCCCC)C(=O)Cc1c(-c2ccc(Cl)cc2)[nH]c2ccc(Cl)cc12 | 1.3 z-score
COC(=O)c1c(-c2cc(OC)c(OC)c(OC)c2)c2ccnc(OCc3ncccn3)c2c(=O)n1Cc1ccnc(C)c1 | 1.55 z-score
Nc1nc2n[nH]nc2c(=O)[nH]1 | -4.41 z-score
COc1ccc2[nH]cc(CCNC(C)=O)c2c1 | 0.123 z-score and 0.756 z-score
NC[C@@H]1O[C@@H](O[C@H]2[C@H](O)[C@@H](O[C@H]3O[C@H](CO)[C@@H](O)[C@H](N)[C@H]3O)[C@H](N)C[C@@H]2N)[C@@H](O)[C@H](O)[C@H]1O | 0.611 z-score
CCC(Cc1c(I)cc(I)c(N)c1I)C(=O)O (stereo not drawn) | 0.879 z-score
CC(C)c1cccc2c(-c3ccccc3)cc(-c3ccc(-c4ccc(C(=O)O)cc4)[nH]3)nc12 | 3.03 z-score
OCC(O)COc1ccc(Cl)cc1 (stereo not drawn) | 0.792 z-score

Series 2
Compound: Cc1cc(NC(=O)c2cccc(S(F)(F)(F)(F)F)c2)cc(-n2ccn3nc(-c4cccnc4)cc23)c1
Observed: cell-free assay
Technique: competition with immobilised ligand
Tested at: 1 µM
target | remaining binding
TNK1 (Homo sapiens, UniProt Q13470) | 95%
ROCK1 (Homo sapiens, UniProt Q13464) | 74.8%
YES1 (Homo sapiens, UniProt P07947) | 100%
MAP3K14 (Homo sapiens, UniProt Q99558) | 73.8%
CLK4 (Homo sapiens, UniProt Q9HAZ1) | 100%
RIPK1 (Homo sapiens, UniProt Q13546) | 80.7%
ERBB3 (Homo sapiens, UniProt P21860) | 49.4%
MYLK (Homo sapiens, UniProt Q15746) | 91.8%
TNIK (Homo sapiens, UniProt Q9UKE5) | 100%

Series 3
Target: G protein-coupled receptor kinase 5 (GRK5, Homo sapiens, UniProt P34947)
Chain of UniProt P34947 (whole entry, looked up): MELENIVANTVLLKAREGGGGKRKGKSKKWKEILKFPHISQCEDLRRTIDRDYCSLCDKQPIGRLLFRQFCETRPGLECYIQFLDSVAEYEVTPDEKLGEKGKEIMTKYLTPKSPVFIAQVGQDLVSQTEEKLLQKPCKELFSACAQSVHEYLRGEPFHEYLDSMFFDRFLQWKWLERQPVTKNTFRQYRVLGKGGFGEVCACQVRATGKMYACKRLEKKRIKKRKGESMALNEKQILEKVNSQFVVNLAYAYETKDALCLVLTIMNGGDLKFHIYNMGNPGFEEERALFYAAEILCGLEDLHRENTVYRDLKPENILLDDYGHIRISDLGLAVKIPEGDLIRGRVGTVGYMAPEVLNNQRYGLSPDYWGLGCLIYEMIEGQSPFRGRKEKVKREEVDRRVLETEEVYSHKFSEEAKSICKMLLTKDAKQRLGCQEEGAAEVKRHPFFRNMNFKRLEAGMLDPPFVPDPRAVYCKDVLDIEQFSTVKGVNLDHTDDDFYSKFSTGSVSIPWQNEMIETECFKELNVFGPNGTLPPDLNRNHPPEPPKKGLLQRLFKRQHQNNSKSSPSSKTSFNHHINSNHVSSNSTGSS
Observed: enzyme activity
Action: inhibitor
Tested at: 0.5 µM
Relative to: control
Structure (SMILES) | remaining activity [%]
O=c1c(-c2ccc(F)cc2)c(-c2ccncc2)[nH]n1-c1ccc(Cl)cc1 | 90.3
O=c1cc(N2CCOCC2)oc2c(-c3ccccc3)cccc12 | 91.6
O=C1Cc2c([nH]c3ccc(Br)cc23)-c2ccccc2N1 | 97
NC(=O)c1cccc(-c2cc(Nc3ccc(OC(F)(F)F)cc3)ncn2)c1 | 109
O=C1c2ccccc2-c2nc3nnnn3nc21 | 74.3
Clc1ccc(Nc2nnc(Cc3ccncc3)c3ccccc23)cc1 | 110
COc1ccc(COc2ccc(Cc3cnc(N)nc3N)cc2OC)cc1 | 109
CN(C)S(=O)(=O)c1ccc2c(c1)/C(=C/c1cc3c([nH]1)CCCC3)C(=O)N2 | 95.3
COc1cc2c(Nc3ccc(Br)cc3F)ncnc2cc1OCC1CCN(C)CC1 | 95.8
C[C@@H](N)[C@H]1CC[C@H](C(=O)Nc2ccncc2)CC1 | 108
O=C(c1cc2cc(O)ccc2[nH]1)c1cc2cc(O)ccc2[nH]1 | 104
O=C1NC(=O)/C(=C/c2ccc3c(c2)OC(F)(F)O3)S1 | 105
O=C(c1ccccc1)c1ccc(N2CCOCC2)cc1O | 105
COc1cccc(-c2cc(=O)c3ccccc3o2)c1N | 97.3
N#C/C(=C(/N)SC1C=CC=CC1)c1cccc(C(O)c2ccncc2)c1 (stereo not drawn) | 87.2

Series 4
Cell line: A-375
Tested at: 100 µM
Time: 36 h
Structure (SMILES) | viability [%]
O=C(O)[C@@H]1CSCN1 | 116
CCOC(CN1CCN(CC(C)C(=O)c2ccccc2)CC1)c1ccccc1 (stereo not drawn) | 41.8
CN1C(C(=O)Nc2ccccn2)=C(O)c2ccccc2S1(=O)=O | 103
Cc1cncc(CN2CCC(=C3c4ccc(Cl)cc4CCc4cccnc43)CC2)c1 | 1.37
Nc1ccc(S(=O)(=O)NC(=O)c2ccccc2)cc1 | 108
COc1ccc(O)cc1 | 110
NC(=O)CCC(N)C(=O)O (racemic) | 119
O=c1[nH]c(=O)n(C2CCCO2)cc1F (stereo not drawn) | 101
Cc1nccn1CC1CCc2c(c3ccccc3n2C)C1=O (stereo not drawn) | 49.5
N[C@@H](Cc1c[nH]c2ccccc12)C(=O)O | 81

For quick reference, copied from above (series 3):
Structure (SMILES) | remaining activity [%]
N#C/C(=C(/N)SC1C=CC=CC1)c1cccc(C(O)c2ccncc2)c1 (stereo not drawn) | 87.2
O=C1Cc2c([nH]c3ccc(Br)cc23)-c2ccccc2N1 | 97
Clc1ccc(Nc2nnc(Cc3ccncc3)c3ccccc23)cc1 | 110
O=C(c1ccccc1)c1ccc(N2CCOCC2)cc1O | 105
O=C(c1cc2cc(O)ccc2[nH]1)c1cc2cc(O)ccc2[nH]1 | 104
COc1cccc(-c2cc(=O)c3ccccc3o2)c1N | 97.3
C[C@@H](N)[C@H]1CC[C@H](C(=O)Nc2ccncc2)CC1 | 108
